Measured values from different studies.
A part holds a random share of what one study measured. Changes are numbered by the printed parent chain.

Block 1
Target: CCNB1, cyclin fold, Cln2 fusion (human)
Method: yeast growth competition, sequencing
Sample: yeast
Notes: strong parent motif
Baseline: not given
Direction: higher = stronger binding
Starting sequence: PKN2 docking peptide (human); DSTVTKLDFDLEP; partner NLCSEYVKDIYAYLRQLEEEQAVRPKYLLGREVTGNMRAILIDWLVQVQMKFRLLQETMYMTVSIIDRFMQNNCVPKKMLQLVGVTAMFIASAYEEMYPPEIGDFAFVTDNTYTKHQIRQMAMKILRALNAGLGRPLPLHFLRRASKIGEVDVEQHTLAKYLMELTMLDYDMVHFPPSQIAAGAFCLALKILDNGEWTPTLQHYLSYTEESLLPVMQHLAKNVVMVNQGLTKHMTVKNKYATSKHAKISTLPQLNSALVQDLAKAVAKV
Change | normalised enrichment score
L7A | 0.0209
L11A | 4.44
P13A | 3.8
F9A | 0.0266
K6A | 2.28
D10A | 1.55
D8A | 2.05

Block 2
Target: Sal-like protein 4, full length isoform A (SALL4, Homo sapiens, UniProt Q9UJQ4, residues 1-1053)
Chain of UniProt Q9UJQ4 (whole entry, looked up): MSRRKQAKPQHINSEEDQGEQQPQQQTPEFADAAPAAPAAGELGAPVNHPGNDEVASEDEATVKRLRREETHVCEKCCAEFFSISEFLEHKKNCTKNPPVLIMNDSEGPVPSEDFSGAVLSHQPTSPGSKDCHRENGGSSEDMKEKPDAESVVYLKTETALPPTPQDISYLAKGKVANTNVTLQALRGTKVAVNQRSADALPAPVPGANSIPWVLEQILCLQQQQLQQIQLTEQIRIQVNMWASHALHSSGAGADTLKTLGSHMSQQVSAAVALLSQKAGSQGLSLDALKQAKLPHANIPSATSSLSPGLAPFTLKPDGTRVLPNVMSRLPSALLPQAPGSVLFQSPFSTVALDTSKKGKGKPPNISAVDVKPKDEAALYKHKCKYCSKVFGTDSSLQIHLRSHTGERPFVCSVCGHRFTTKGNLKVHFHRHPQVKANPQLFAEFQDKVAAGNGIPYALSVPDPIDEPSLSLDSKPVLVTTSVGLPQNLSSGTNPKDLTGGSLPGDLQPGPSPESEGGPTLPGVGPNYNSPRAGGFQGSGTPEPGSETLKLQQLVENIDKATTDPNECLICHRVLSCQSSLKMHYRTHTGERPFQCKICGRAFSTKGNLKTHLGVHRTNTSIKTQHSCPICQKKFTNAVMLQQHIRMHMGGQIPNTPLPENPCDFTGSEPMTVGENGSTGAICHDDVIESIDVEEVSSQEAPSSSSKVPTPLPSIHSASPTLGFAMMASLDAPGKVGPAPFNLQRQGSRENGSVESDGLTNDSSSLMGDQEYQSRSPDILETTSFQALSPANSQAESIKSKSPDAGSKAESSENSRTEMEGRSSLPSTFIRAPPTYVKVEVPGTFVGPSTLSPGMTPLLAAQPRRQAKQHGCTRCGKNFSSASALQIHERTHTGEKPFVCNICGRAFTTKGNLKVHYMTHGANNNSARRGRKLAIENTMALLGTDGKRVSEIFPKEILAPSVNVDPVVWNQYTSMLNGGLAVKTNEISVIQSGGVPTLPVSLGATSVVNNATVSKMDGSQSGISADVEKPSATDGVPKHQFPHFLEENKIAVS
Method: universal PBM
Molecule type: double-stranded DNA, one strand shown
Sample: in vitro
Concentration: 600 nM
Notes: 8-mer, flanks averaged, mean of replicates
Direction: higher = stronger binding
Sequence | E-score
GATAACGC | -0.0586
GAATGATA | 0.313
GATGGCCA | -0.12
CCGCCTCA | -0.275
ACGGAAGT | -0.0391
AGCTGCTA | -0.109
CCCTTTCC | -0.276
CCGAGTTA | -0.0029
CTGCTTCC | -0.124
AGAGTCGA | -0.148
GCGGTGCA | -0.284
GATACCCA | -0.0885
AATCGTGT | 0.0665
AGCAGGCC | -0.292
AGACAGCC | -0.233
GCTATAGA | 0.23
CCTCACTC | -0.0928

Block 3
Target: Histone acetyltransferase KAT6A, winged helix 2, GST fusion (KAT6A, Homo sapiens, UniProt Q92794, residues 85-181)
Method: protein binding microarray
Molecule type: double-stranded DNA, one strand shown
Sample: in vitro
Concentration: not given
Notes: 8-mer, flanks averaged, mean of 2 arrays, mostly near background
Baseline: not given
Direction: higher = stronger binding
Construct (chain): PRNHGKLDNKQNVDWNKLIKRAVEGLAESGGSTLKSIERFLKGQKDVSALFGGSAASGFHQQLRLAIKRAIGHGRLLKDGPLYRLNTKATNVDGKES
Sequence | E-score
GACATCTC | -0.14
AAGTTGTA | -0.0619
TGCAAAAA | 0.0549
CTGTGGTC | 0.0771
ATGTGAGA | -0.137
CGGTTATC | -0.135
ACACTGCG | 0.0836
ACCGACTC | -0.0719
CGGTGAGC | 0.0667
GTAGCGAC | -0.0911
GGCAATGA | -0.018
GGATGTCA | 0.0294
AGCAAACT | 0.119
CCCTCTGC | 0.156
CCAATCTC | -0.0839
ACGTCAGA | -0.132
AGCCACAA | 0.215
AGCAAAAT | 0.217
AGTTATAA | 0.00392
GAAGGACC | 0.0563
ATTCGATA | -0.0699
CGTCCGAG | 0.0112
ATAGCCTG | -0.0216
AATCAATA | 0.125
ACCCTTGC | -0.0847

Block 4
Target: Interferon regulatory factor 7, full length, phosphomimetic (IRF7, Homo sapiens, UniProt Q92985, residues 1-503, S101K/S471D/S472D/S475D/S476D/S477D/S483D/S484D/S487D)
Chain of UniProt Q92985 (whole entry, unmodified, looked up): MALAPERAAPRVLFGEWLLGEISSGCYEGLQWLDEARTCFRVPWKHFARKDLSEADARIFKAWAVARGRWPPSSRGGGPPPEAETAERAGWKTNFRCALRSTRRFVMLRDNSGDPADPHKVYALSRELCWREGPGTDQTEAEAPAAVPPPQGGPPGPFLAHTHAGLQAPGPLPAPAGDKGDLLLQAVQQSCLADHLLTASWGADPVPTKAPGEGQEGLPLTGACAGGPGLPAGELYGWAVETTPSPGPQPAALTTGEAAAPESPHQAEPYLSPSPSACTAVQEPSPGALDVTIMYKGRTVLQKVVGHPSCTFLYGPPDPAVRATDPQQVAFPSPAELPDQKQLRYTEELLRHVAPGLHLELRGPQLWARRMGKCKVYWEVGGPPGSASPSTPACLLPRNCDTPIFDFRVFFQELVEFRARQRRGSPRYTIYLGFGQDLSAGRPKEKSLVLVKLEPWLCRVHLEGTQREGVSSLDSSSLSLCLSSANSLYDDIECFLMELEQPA
Method: protein-binding microarray
Molecule type: double-stranded DNA, one strand shown
Sample: in vitro
Concentration: 250 nM
Notes: 60-bp whole probe
Added: salmon DNA 0.4 mg/ml
Baseline: random background probes
Direction: higher = stronger binding
All sequences stand within: GCCTAGCAC … GTCTTGATTCGCTTGACGCTGCTG
Sequence | log fluorescence [z-score]
GGCGGTTTCGACTTTCGGGACGTGCTA | 10.6
GACGGACTGGGATTGGGGACGTGCTAG | -0.452
GACGATATCAGGTTCGAGACGTGCTAG | 0.363
GACGGACTGGGGAATCGGGACGTGCTA | -0.322
TTAGGTCCCGGACTGGGTTAGTGCTAG | 0.273
GACGGTATCGACACTGGGGCCGTGCTA | -0.44
GACGGTATCGATACTGGGGACGTGCTA | 0.519
TCAGTTTTGTTTTTCATACTGTGCTAG | 5.07
GACGGTCTCCTTCTCCTGAGGTGCTAG | 0.0782
TCGAGTCTGCAACATGGGACTGTGCTA | 0.0781
GACAGTATCGGTCTCGGGACGTGCTAG | 0.857
TTAGGTTTCGGGTTTCGGATAGTGCTA | 12.2
TTTGATTTCAGTTCCGATTAGTGCTAG | 1.64
GACGATATCGGGTATCGAGAAGTGCTA | -0.194
CAGGGTTTCAGATGCGTGAGGTGCTAG | 0.286
TTAGGTTTCCTTCTCCATTAGTGCTAG | 2.44

Block 5
Target: ABI1, truncated, D143A, DHFR fusion (Arabidopsis thaliana)
Method: DHFR PCA, deep sequencing
Sample: yeast
Notes: methotrexate growth selection, single substitutions
Added: (+)-ABA 0.032 µM
Baseline: wild-type fitted maximum
Direction: higher = stronger binding
Starting sequence: PYL1, truncated, DHFR fusion (Arabidopsis thaliana); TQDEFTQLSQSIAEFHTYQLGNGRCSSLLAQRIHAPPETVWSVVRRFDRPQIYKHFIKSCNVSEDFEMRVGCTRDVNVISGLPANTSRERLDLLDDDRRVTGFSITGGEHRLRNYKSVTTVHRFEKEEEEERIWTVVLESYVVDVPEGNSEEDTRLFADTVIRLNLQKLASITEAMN; partner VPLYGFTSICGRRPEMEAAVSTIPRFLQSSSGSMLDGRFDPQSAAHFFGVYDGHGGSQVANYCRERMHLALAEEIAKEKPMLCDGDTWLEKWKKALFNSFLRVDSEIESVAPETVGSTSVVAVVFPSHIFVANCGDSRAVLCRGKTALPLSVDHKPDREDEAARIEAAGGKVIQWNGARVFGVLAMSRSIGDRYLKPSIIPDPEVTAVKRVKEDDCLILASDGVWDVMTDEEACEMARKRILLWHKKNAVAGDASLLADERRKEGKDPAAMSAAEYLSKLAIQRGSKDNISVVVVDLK
Change | relative binding score [%]
G107D | 19.6
H110D | 47.6
K58M | -6.09
A175I | -5.97
N177G | 18.9
S80H | 17.7
P50R | -0.452
T154L | -4.86
R132F | 15.4
T86A | 9.51
V137P | -4.29
S59I | 13.4
R88P | -1.37
S11P | 43.8
T173G | -0.684
S27E | -1.17
I12C | 7.92

Block 6
Target: RNA binding protein fox-1 homolog 2, RRM domain, GST-SBP tag (RBFOX2, Homo sapiens, UniProt O43251-10, residues 100-194)
Method: RNA Bind-n-Seq
Molecule type: RNA
Sample: in vitro
Concentration: 365 nM
Notes: natural RNA segment, single round, ends assumed
Baseline: no-protein control
Direction: higher = stronger binding
All sequences stand within: GGGAGUUCUACAGUCCGACGAUC … UGGAAUUCUCGGGUGCCAA
Residues (chain): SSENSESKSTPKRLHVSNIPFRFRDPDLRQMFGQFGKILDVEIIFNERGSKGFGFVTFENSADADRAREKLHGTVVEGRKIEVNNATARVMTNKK
Sequence | RBNS enrichment (R)
AUUCACUGCUGCCCUGACUCUUCACCAUCUUUCUUUAGCAAGGUAUUUUGAGCCAUUAAUGAUUUUGGGUUUUUUAAUCCAGAAGGUAUAUAAAAGCCUUUUCAGAGUUU | 0.603
AUUUGUAAGCAUCCCCCAAAUUAUUCUGAAGGUUUUUUGAUGAUGGAGGUAUGAUAGGUUUAUCACACAGCCUAAGGCAGAUUUUGUUUUGUCUGUACUGACUCUAUCUG | 0.454
CCUCAUCCCUCUAAGCAGCUGUCUGUGUGGGUCCUGUCAAUCCCCACACAGACGAAGGUAGCCAGUCACAAGGUUCUGUGCCACCCUGGCCCUAGUGCUUCCAUCUGAUG | 0.379
UCUGACCUCAUCACCAGAGCUGCUGGUGGGGCCUCAUUCCUUGCAGCAGAUGGGUGAGCUGCACCAAAGUACCUGAGCAGUUAGGCCCCAGGUCCCCACCUGACCACCUG | 0.308
GCGGAUGUGGGGGCGGCCAUCUGGUAGUGGAAAGCUGUAGCGAUCUGAGUACAGCUUAGAUGUUAGCUGGAGAGGAAGAUGGUGUGGCAGGUCUCUGGUCUCCCUACCCC | 0.823
AGUUAAUAGUCUAUUAUUUUAUGUCUAUUGAUUUUCAUUGUUAAUGUGAAAUGGUUAUUUAUACUUAUAGAAAGUUUGUGAAAUUUGCACAGUUGUCUUUCAAAGGAUAG | 0.527
UCACACUCCCUCUGACGGACGGACGGACGUCAGUGCCCUCUCCCUUCUCCUUGUGAAGCCAUAAGCCUGACUUCCCCUCAGCCCUGCUCCCUCAUUUUCUCUCAUCAUGU | 0.517
AUUUCUUCUGGAGGGAAGCACCAUGAAUUAAAGGUGCCAGAGCUCCAUGCAUGGAAAAGUGGCCUGUUGGUUCAACGUGGUUUCCUUGUACUUGAUCCUCCUGAAAUGAG | 1.88
GCUAGCUCUGUCCAGAUAGGACCUGAGGAAGCCACCUUGUAGGGAGCCUUGUGUGUGGCCAGGGACACCUGGCUUCCCUCCCUACUGCCAAAUAAACCCCUAUGAACCUU | 0.289
CAUCCUCCCUCCUGCCCCACCCCCACCCAAAGAAUCUAUGCGUCAGCUCAGGACGUGGGGCCGAUCUGUGUGAGUCCAGCAUGUACCUGUGUCCCCCGUAGUAUCCCCGC | 5.07
UGUGUUCACAAGGGUUACUCCUCAAAACCCCCAGUUCUCACUCAUGUCCCCAACUCAAGGCUAGAAAACAGCAAGAUGGAGAAAUAAUGUUCUGCUGCGUCCCCACCGUG | 0.343
UCAGAGAAUCUAUGAAUAAUGGAAGCAUUAAUUGUUUUGAACAUGUAAAUAUAAAUCUGUCAGCCACUACAGCCAUCAAAAGAGAGCAUCUGGAAGAACAGCCAGCUUGG | 0.856

Some of these lines once more (block 4):
Sequence | log fluorescence [z-score]
GACGGTATCGATACTGGGGACGTGCTA | 0.519
TTTGATTTCAGTTCCGATTAGTGCTAG | 1.64
TTAGGTTTCCTTCTCCATTAGTGCTAG | 2.44
TCGAGTCTGCAACATGGGACTGTGCTA | 0.0781
GACGGTATCGACACTGGGGCCGTGCTA | -0.44
TTAGGTTTCGGGTTTCGGATAGTGCTA | 12.2
GACGATATCGGGTATCGAGAAGTGCTA | -0.194
GACGATATCAGGTTCGAGACGTGCTAG | 0.363
TTAGGTCCCGGACTGGGTTAGTGCTAG | 0.273
